Measurements collected from several papers.
Compare with care: the assays were run in different laboratories. ± gives the spread as reported.

`CC(=O)Nc1ccc2ccn(-c3cc(NC45CC6CC(CC(C6)C4)C5)n4ncc(C#N)c4n3)c2c1` — result for activity: “inactive” (CSNK2A1 and CSNK2A2, human; inactive, NanoBRET; 10 µM).
`Cc1cc(Nc2nc(C[C@@]3(C(=O)O)CCN(Cc4cccc(Cl)c4F)[C@H](C)C3)cc(C)c2F)[nH]n1` has an inhibition of 89.4% (AURKA (Thr288 phosphorylation), mouse; AURKA phosphorylation, inhibitor, item: phospho-AURKA Thr288; mouse, NCI-H446 xenograft, tumour; oral, 10 mg/kg single dose, 1 h).
For `C[C@H](NC(=O)[C@@H]1CCCN1C(=O)[C@H](Cc1ccc(O)cc1)NC(=O)CNC(=O)[C@H](CO)NC(=O)[C@H](Cc1ccccc1)NC(=O)[C@@H](N)[C@@H](C)O)C(=O)N[C@@H](Cc1ccccc1)C(=O)O`, the outward current was 89 ± 12.6 pA (µ opioid receptor; rat supraoptic nucleus neurons, Sprague Dawley rat; 100 µM, held at -50 mV).
The EC50 of `N=C(N)NCCC[C@H](N)C(=O)N1CCC[C@H]1C(=O)N[C@@H](CCCCN)C(=O)N1CCC[C@H]1C(=O)N[C@@H](CCC(N)=O)C(=O)N[C@@H](CCC(N)=O)C(=O)N[C@@H](Cc1ccccc1)C(N)=O` is reported as 38.7 µM (MRGPRX2, human; Ca2+ mobilization, agonist, Fura-2; LAD2 IgE-sensitized; 37 °C).
`Cl.Cl.Cl.Cl.Cl.Cl.Cl.Cl.Cl.Cl.Cl.Cl.NC[C@@H]1O[C@H](O[C@H]2[C@@H](O)[C@H](O[C@@H]3[C@@H](O)[C@H](N)C[C@H](N)[C@H]3O[C@H]3O[C@H](CN)[C@@H](O)[C@H](O)[C@H]3N)O[C@@H]2Cn2cc(-c3ccc(-c4cn(C[C@H]5O[C@@H](O[C@@H]6[C@@H](O)[C@H](N)C[C@H](N)[C@H]6O[C@H]6O[C@H](CN)[C@@H](O)[C@H](O)[C@H]6N)[C@H](O)[C@@H]5O[C@H]5O[C@@H](CN)[C@@H](O)[C@H](O)[C@H]5N)nn4)cc3)nn2)[C@H](N)[C@@H](O)[C@@H]1O` has a Tm of 78.5 °C (HIV-1 TAR RNA; UV thermal denaturation; 1 molar equivalents to RNA, pH 6.8, TAR RNA 1 µM per strand).
The IC50 of `NC(=O)[C@H](CO)NC(=O)[C@@H]1CCCN1C(=O)[C@H](Cc1ccc(O)cc1)NC(=O)CNC(=O)[C@H](Cc1ccccc1)NC(=O)[C@@H](CCCCNC(=O)CBr)NC(=O)[C@@H](N)Cc1ccc(O)cc1` is reported as 0.00523 ± 0.00231 µM (mu opioid receptor; radioligand binding; CHO cells; with: 1 nM [3H]DAMGO).
The remaining activity of `O=C1c2cc(Cl)ccc2NC12CCCC2` is reported as 73.6 ± 4.5% (butyrylcholinesterase; 10 µM).
For `CCN(CCCCOc1ccc(CCC(=O)N2CCC(Cc3ccccc3)CC2)cc1OC)Cc1ccccc1`, the remaining activity was 71.8% (butyrylcholinesterase; dilution reversibility; 0.1 × IC50, 120 min; relative to: uninhibited enzyme).
`CNc1ccccc1C(=O)O[C@H]1C[C@H](n2cnc3c(N)ncnc32)O[C@@H]1COP(=O)(O)OP(=O)(O)O` — result for “ADP release rate constant”: 3 fold (chicken myosin Va G440A FlAsH; 25 °C, weak actomyosin.ADP state, with: actin, saturating Mg; relative to: wild type).
For `CC[C@@H]1CN2CCc3c([nH]c4cccc(OC)c34)[C@@H]2C[C@@H]1/C(=C\OC)C(=O)OC`, the IC50 was 2.6 µg/mL (rabbit anti-mitragynine polyclonal IgG; competitive indirect ELISA; salt 0.33 M).
The ΔTm of `Cl.Cl.Cl.Cl.Cl.Cl.Cl.Cl.Cl.Cl.Cl.Cl.NC[C@@H]1O[C@H](O[C@H]2[C@@H](O)[C@H](O[C@@H]3[C@@H](O)[C@H](N)C[C@H](N)[C@H]3O[C@H]3O[C@H](CN)[C@@H](O)[C@H](O)[C@H]3N)O[C@@H]2Cn2cc(COCCCCCCCCCCCCOCc3cn(C[C@H]4O[C@@H](O[C@@H]5[C@@H](O)[C@H](N)C[C@H](N)[C@H]5O[C@H]5O[C@H](CN)[C@@H](O)[C@H](O)[C@H]5N)[C@H](O)[C@@H]4O[C@H]4O[C@@H](CN)[C@@H](O)[C@H](O)[C@H]4N)nn3)nn2)[C@H](N)[C@@H](O)[C@@H]1O` is reported as 3.3 °C (HIV-1 TAR RNA; UV thermal denaturation; 1 molar equivalents to RNA, pH 6.8, TAR RNA 1 µM per strand; relative to: RNA alone, higher is more stabilization).
The selectivity ratio of `NC(=O)[C@H](CO)NC(=O)[C@@H]1CCCN1C(=O)[C@H](Cc1ccc(O)cc1)NC(=O)CNC(=O)[C@H](Cc1ccccc1)NC(=O)[C@@H](CCCCN=C=S)NC(=O)[C@@H](N)Cc1ccc(O)cc1` is reported as 255 (mu opioid receptor; radioligand binding; relative to: IC50 delta over IC50 mu).
For `CC(C)C[C@@H]1NC(=O)[C@H](Cc2ccc(O)cc2)NC(=O)[C@H](CC(N)=O)NC(=O)[C@H](CO)NC(=O)[C@@H](NC(=O)[C@@H]2CCCN2C(=O)[C@H](CC(N)=O)NC(=O)[C@@H](N)Cc2ccc(O)cc2)CSC1=O`, AgrC-III inhibition read “inactive” (AgrC-III; GFP reporter; Staphylococcus epidermidis, agr group-III reporter; 10 µM).
With `COCCCN1CCc2c(Cc3ccc(Cl)cc3)[nH]c3c(OC(F)F)ccc(c23)C1=O` the selectivity ratio was 6.5 (PDE6C; enzyme activity, inhibitor; relative to: PDE6C IC50 over PDE5A1 IC50).
Under AgrC-III inhibition, `CC(=O)N[C@H]1CSC(=O)[C@H](CC(C)C)NC(=O)[C@H](Cc2ccc(O)cc2)NC(=O)[C@H](CC(N)=O)NC(=O)[C@H](CO)NC1=O` is recorded as “inactive” (AgrC-III; GFP reporter; Staphylococcus epidermidis, agr group-III reporter; 10 µM).
`CC1CCCCCCCCCCCCC(=O)C1` (stereo not shown) has an IC50 of 2.23 ± 0.8 µM (odorant-binding protein 3 (Manis javanica); competitive binding; pH 7.4).
Under “V1/2 of activation”, `COC[C@@H](NC(C)=O)C(=O)NCc1ccc(OCc2ccc(F)cc2)cc1` is recorded as -32.2 ± 1.9 mV (rat voltage-gated sodium channels; whole-cell patch clamp; rat embryonic cortical neurons; 10 µM).
`Cc1ccc(C(C)C)cc1.F[P-](F)(F)(F)(F)F.[Cl][Ru-]1[NH2+]CC[NH2+]1` has a delta Tm of -0.6 °C (calf thymus DNA; thermal denaturation; 0.5 equivalents per DNA, 1 h, pH 7.39, 25 °C, 50 mM NaClO4).
The selectivity ratio of `NC(=O)[C@H](CO)NC(=O)[C@@H]1CCCN1C(=O)[C@H](Cc1ccc(O)cc1)NC(=O)CNC(=O)[C@H](Cc1ccccc1)NC(=O)[C@@H](CCCN=C=S)NC(=O)[C@@H](N)Cc1ccc(O)cc1` is reported as 29 (mu opioid receptor; radioligand binding; relative to: IC50 delta over IC50 mu).
The IC50 of `CCO[C@H]1[C@H](O)[C@@H](N)[C@@H](O[C@H]2[C@H](O[C@@H]3O[C@H](CO)[C@@H](O[C@H]4O[C@@H](CN)[C@@H](O)[C@H](O)[C@H]4N)[C@H]3O)[C@@H](O)[C@H](N)C[C@@H]2N)O[C@@H]1CO` is reported as 37.6 ± 14.1 µg/mL (rabbit reticulocyte ribosome; luciferase translation, cell-free translation; rabbit reticulocyte lysate).
`Cl.Cl.Cl.Cl.Cl.Cl.Cl.Cl.Cl.Cl.Cl.Cl.NC[C@@H]1O[C@H](O[C@H]2[C@@H](O)[C@H](O[C@@H]3[C@@H](O)[C@H](N)C[C@H](N)[C@H]3O[C@H]3O[C@H](CN)[C@@H](O)[C@H](O)[C@H]3N)O[C@@H]2Cn2cc(CCCc3cn(C[C@H]4O[C@@H](O[C@@H]5[C@@H](O)[C@H](N)C[C@H](N)[C@H]5O[C@H]5O[C@H](CN)[C@@H](O)[C@H](O)[C@H]5N)[C@H](O)[C@@H]4O[C@H]4O[C@@H](CN)[C@@H](O)[C@H](O)[C@H]4N)nn3)nn2)[C@H](N)[C@@H](O)[C@@H]1O` has a ΔTm of 9.3 °C (HIV-1 TAR RNA; UV thermal denaturation; 1 molar equivalents to RNA, pH 6.8, TAR RNA 1 µM per strand; relative to: RNA alone, higher is more stabilization).
The Tm of `CC(=O)N[C@@H](CNC(=O)c1cc(NC(=O)c2cc(NC(=O)c3cc(NC(=O)c4nccn4C)cn3C)cn2C)cn1C)CC(=O)Nc1cn(C)c(C(=O)Nc2cc(C(=O)Nc3cc(C(=O)Nc4cc(C(=O)NCCCN(C)CCCNC(=O)c5cccc(C(=O)O)c5)n(C)c4)n(C)c3)n(C)c2)n1` is reported as 76 °C (androgen response element DNA duplex; DNA binding; 2 µM, pH 7.0).
For `CC(=O)NCCC[C@@H](NC(=O)[C@@H](N)Cc1ccc(O)cc1)C(=O)N[C@@H](Cc1ccccc1)C(=O)NCC(=O)N[C@@H](Cc1ccc(O)cc1)C(=O)N1CCC[C@H]1C(=O)N[C@@H](CO)C(N)=O`, the IC50 was 0.00425 ± 0.00035 µM (mu opioid receptor; radioligand binding; CHO cells; with: 1 nM [3H]DAMGO).
`O=C1c2ccccc2N(Cc2ccc(F)cc2)C12CCCC2` has a remaining activity of 83.7 ± 1.02% (butyrylcholinesterase; 10 µM).
With `CC(=O)N[C@H]1CNC(=O)c2cc(cn2C)NC(=O)c2cc(cn2C)NC(=O)c2cc(cn2C)NC(=O)c2nc(cn2C)NC(=O)C[C@@H](N)CNC(=O)c2cc(cn2C)NC(=O)c2cc(cn2C)NC(=O)c2cc(cn2C)NC(=O)c2nc(cn2C)NC(=O)C1` the ΔTm was 21.3 °C (androgen response element DNA duplex; DNA binding; 2 µM, pH 7.0; relative to: DNA alone).
`[CH3][Ti+2][O]C(=O)c1ccc([S][Au][PH](c2ccccc2)(c2ccccc2)c2ccccc2)cc1.c1cc[cH-]c1.c1cc[cH-]c1` gave an IC50 of 0.88 µM (thioredoxin reductase human; enzyme activity, inhibitor; CAKI-1; 12 h).
For `C[C@@H](O)[C@H](NC(=O)[C@H](CO)NC(=O)[C@H](CO)NC(=O)[C@@H](N)CCCCN)C(=O)N[C@@H](CCCNC(=N)N)C(=O)NCC(=O)N[C@@H](CCCNC(=N)N)C(=O)N[C@@H](CCCCN)C(=O)N[C@@H](CO)C(=O)N[C@@H](CO)C(=O)N[C@@H](CCCNC(=N)N)C(=O)N[C@@H](CCCNC(=N)N)C(=O)N[C@@H](CCCCN)C(=O)N[C@@H](CCCCN)C(=O)O`, the EC50 was ~10 µM (MRGPRX2 human; degranulation, agonist, item: β-hexosaminidase release; LAD2).
`O=C1c2cc(Cl)ccc2N(Cc2ccccc2)C12CCCC2` has a remaining activity of 59.4 ± 5.45% (butyrylcholinesterase; 10 µM).
`CN(CCCNC(=O)c1cccc(C(=O)O)c1)CCCNC(=O)c1cc(NC(=O)c2cc(NC(=O)c3cc(NC(=O)c4nc(NC(=O)C[C@@H](N)CNC(=O)c5cc(NC(=O)c6cc(NC(=O)c7cc(NC(=O)c8nccn8C)cn7C)cn6C)cn5C)cn4C)cn3C)cn2C)cn1C` has a Tm of 78.4 °C (androgen response element DNA duplex; DNA binding; 2 µM, pH 7.0).
`CCC(=O)C[C@@H](O)C[C@@H](C)C[C@H](NC(=O)[C@@H]1C[C@H](C)CN1C(=O)/C=C/[C@@H](C)CC)C(=O)N[C@H](C(=O)NC(C)(C)C(=O)N[C@@H](CC(C)C)C(=O)N[C@@H](CC(C)C)C(=O)NC(C)(C)C(=O)NC(C)(C)C(=O)NCCC(=O)N[C@@H](C)CNC)[C@H](O)C(C)C`: 4E-BP1 activation “decreased” (mTORC1; inhibitor, immunoblot; MDA-MB-453; 100 nM, 2 h).
The delta Tm of `CCN(CC)CCCC(C)Nc1cc[n+]([Ru-]2[NH2+]CC[NH2+]2)c2cc(Cl)ccc12.Cc1ccc(C(C)C)cc1.F[P-](F)(F)(F)(F)F.F[P-](F)(F)(F)(F)F` (stereo not shown) is reported as 3.4 °C (calf thymus DNA; thermal denaturation; 0.5 equivalents per DNA, 1 h, pH 7.39, 25 °C, 25 mM NaClO4).
